Assay results collected from several papers.
Protocols differ between the studies behind these lines. Several values in a cell are separate wells, animals, samples, runs or records. ± gives the spread as reported.
FFAR4: Free fatty acid receptor 4 (FFAR4, Homo sapiens, UniProt Q5NUL3)
UniProt Q5NUL3, sequence (whole entry, looked up): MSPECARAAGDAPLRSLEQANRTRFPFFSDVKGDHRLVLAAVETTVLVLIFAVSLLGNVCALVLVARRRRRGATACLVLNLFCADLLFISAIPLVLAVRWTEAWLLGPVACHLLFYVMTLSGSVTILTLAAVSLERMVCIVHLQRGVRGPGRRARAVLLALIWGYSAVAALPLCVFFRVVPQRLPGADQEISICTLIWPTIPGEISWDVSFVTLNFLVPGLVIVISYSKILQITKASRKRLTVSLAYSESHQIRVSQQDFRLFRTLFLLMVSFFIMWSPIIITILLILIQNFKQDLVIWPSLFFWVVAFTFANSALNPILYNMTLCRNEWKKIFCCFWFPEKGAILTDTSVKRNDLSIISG
Trypanothione synthetase: Trypanothione synthetase (Trypanosoma brucei brucei, UniProt Q8IEX1)
Alpha-amylase: Alpha-amylase (Bos taurus, UniProt Q3MHH8)
ROCK1: Rho-associated protein kinase 1 (ROCK1, Homo sapiens, UniProt Q13464)
UniProt O43497, sequence (whole entry, looked up): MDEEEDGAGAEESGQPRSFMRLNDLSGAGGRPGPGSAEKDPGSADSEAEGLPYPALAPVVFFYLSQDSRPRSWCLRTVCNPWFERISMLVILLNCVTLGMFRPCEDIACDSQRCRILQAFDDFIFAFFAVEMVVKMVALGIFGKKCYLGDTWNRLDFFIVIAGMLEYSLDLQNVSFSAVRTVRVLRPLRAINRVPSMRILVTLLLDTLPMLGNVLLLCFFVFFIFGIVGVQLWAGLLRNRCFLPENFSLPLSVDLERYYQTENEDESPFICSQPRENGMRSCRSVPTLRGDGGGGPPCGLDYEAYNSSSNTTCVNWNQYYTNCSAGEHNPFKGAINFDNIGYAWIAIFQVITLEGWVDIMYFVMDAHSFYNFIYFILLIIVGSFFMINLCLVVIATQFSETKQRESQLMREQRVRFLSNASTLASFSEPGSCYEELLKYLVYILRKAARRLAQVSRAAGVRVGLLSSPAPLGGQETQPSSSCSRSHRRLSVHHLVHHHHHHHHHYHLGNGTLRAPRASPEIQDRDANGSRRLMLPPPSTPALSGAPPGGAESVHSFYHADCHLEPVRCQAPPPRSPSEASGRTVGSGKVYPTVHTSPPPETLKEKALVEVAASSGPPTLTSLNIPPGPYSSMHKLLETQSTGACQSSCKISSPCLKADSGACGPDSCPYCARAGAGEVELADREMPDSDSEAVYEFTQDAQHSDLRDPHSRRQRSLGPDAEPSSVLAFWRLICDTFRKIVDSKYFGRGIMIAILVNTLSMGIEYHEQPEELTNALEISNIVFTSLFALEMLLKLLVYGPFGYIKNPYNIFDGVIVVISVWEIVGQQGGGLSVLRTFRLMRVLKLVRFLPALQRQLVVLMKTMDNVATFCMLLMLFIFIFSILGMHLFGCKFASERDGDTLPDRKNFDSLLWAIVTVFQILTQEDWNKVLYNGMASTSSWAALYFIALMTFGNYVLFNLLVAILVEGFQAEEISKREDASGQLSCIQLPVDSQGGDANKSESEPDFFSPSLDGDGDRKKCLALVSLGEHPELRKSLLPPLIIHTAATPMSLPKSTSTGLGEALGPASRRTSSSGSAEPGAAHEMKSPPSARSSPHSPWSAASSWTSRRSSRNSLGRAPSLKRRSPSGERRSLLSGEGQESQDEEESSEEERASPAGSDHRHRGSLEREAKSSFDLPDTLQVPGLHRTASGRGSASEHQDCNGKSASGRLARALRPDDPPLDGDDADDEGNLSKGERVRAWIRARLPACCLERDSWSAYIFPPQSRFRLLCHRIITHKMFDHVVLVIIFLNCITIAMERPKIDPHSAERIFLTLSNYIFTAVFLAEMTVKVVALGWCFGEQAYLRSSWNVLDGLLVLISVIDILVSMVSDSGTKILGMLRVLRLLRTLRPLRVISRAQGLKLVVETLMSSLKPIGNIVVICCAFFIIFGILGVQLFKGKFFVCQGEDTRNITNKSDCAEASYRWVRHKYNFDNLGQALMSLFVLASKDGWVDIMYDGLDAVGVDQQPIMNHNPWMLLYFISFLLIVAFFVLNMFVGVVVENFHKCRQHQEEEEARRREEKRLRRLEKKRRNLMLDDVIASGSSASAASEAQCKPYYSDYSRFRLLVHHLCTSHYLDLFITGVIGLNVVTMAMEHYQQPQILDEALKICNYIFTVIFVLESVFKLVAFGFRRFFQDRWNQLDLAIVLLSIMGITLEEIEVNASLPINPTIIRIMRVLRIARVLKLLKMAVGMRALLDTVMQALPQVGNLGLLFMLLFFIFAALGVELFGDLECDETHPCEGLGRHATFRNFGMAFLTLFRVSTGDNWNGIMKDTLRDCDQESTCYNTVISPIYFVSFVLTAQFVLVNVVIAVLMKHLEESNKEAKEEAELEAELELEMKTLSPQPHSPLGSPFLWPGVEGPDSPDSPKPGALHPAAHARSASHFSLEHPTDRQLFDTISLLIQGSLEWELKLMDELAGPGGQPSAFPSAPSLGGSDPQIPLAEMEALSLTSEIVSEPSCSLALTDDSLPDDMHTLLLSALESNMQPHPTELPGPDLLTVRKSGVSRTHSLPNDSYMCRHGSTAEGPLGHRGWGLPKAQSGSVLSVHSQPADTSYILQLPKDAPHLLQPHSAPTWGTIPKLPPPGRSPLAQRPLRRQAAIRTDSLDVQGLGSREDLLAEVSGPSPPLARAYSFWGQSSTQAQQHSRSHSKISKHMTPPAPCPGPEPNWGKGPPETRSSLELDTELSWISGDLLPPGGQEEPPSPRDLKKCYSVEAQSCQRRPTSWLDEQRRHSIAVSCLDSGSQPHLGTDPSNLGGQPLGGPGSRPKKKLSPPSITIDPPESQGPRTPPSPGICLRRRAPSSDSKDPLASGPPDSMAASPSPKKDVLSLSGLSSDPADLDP
UniProt Q13464, sequence (whole entry, looked up): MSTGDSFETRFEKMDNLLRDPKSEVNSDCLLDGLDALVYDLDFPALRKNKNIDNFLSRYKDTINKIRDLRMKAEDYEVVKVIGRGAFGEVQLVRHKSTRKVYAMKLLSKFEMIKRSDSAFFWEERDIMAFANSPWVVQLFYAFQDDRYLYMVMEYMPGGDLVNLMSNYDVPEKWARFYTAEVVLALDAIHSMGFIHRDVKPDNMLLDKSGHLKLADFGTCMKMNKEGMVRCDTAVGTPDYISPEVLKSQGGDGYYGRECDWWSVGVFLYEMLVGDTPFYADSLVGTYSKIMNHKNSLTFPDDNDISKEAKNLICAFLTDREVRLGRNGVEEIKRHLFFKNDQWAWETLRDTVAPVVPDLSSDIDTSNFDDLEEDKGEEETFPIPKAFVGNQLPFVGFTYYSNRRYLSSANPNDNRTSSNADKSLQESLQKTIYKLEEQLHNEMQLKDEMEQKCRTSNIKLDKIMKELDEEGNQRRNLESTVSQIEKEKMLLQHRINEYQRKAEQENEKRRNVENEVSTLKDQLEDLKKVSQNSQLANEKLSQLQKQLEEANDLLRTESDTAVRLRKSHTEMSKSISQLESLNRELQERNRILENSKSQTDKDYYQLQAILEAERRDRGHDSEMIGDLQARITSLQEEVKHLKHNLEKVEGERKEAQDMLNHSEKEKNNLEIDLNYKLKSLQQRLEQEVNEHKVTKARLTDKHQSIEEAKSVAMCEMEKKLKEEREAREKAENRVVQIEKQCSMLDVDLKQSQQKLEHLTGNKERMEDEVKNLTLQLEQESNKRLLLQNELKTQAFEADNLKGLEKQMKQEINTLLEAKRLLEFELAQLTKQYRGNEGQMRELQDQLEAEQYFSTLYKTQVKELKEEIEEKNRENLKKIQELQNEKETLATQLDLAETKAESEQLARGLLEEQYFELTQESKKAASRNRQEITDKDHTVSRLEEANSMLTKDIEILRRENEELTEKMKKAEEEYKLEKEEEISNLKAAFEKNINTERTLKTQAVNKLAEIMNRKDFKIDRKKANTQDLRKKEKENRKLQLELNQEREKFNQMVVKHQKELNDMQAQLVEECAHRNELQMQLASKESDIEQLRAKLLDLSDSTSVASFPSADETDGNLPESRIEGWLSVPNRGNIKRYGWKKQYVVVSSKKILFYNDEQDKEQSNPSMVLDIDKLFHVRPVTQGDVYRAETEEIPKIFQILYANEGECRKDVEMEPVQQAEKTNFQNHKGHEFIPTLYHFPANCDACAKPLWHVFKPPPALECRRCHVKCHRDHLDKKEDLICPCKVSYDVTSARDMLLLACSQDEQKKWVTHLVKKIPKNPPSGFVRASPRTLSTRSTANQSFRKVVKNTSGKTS
UniProt Q96RR4, sequence (whole entry, looked up): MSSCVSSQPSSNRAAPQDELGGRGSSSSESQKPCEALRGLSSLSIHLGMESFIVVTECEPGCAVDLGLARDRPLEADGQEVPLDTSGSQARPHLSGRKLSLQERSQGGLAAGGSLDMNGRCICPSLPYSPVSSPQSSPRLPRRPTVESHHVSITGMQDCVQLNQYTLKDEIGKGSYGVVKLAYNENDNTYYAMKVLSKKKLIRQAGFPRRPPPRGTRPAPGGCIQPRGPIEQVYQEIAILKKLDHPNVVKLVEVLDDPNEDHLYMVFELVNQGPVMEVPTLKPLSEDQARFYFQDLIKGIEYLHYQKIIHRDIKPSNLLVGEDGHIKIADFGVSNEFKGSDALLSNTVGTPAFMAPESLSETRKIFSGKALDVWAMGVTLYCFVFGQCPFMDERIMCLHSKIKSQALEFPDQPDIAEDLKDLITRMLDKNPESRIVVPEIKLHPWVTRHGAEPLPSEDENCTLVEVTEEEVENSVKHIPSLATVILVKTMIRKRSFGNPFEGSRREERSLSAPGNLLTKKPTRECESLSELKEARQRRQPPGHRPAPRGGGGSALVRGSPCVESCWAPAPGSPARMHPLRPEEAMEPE
UniProt Q6W5P4, sequence (whole entry, looked up): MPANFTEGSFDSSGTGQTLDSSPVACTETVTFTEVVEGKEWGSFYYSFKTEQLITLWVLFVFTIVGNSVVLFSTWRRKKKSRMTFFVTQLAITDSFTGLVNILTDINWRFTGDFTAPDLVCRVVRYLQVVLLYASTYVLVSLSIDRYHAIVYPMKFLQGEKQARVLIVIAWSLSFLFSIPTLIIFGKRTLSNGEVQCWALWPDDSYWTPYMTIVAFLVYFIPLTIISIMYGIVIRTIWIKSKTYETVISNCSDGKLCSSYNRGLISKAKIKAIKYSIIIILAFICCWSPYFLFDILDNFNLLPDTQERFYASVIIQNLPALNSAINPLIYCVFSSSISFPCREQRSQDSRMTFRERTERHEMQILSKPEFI

Compound = O=c1cc(NCc2ccccc2)[nH]c(=O)[nH]1; target = FFAR4; assay = antagonist, β-arrestin recruitment; test system = CHO cells; setting = 10 µM; inhibition = 37 ± 5%
Compound = CC(C)(C)OC(=O)NCCNC(=O)CN1C(=O)Cc2c([nH]c3ccc(Br)cc23)-c2ccc(Cl)cc21; target = Trypanothione synthetase; assay = enzyme activity, inhibitor, BIOMOL Green; setting = 30 µM; inhibition = 28.3 ± 3.2%
Compound = CCCCCCCCCCNc1cc(=O)[nH]c(=O)[nH]1; target = FFAR4; assay = antagonist, β-arrestin recruitment; test system = CHO cells; setting = 10 µM, added: 4 µM TUG-891; inhibition = 32 ± 9%
Compound = CC[C@@H]1[C@H](F)C(=O)N[C@@H]1COc1nccc2cc(C(N)=O)c(OC)cc12; target = CAMK1D (Homo sapiens, UniProt Q8IU85); assay = ATP-site probe binding, ActivX profiling; test system = THP-1 cell lysate; setting = 0.04 mM, Lys2 site; inhibition = -15.2%
Compound = CCN1CCN(Cc2ccc(NC(=O)c3ccc(C)c(/C=C/c4cnc5[nH]ccc5c4OC)c3)cc2C(F)(F)F)CC1; target = CAMKK2 (Homo sapiens, UniProt Q96RR4); test system = A-375; setting = 0.5 µM; inhibition = -30.3%
Compound = CCCCCCCNc1[nH]c(=O)[nH]c(=O)c1N=O; target = FFAR4; assay = antagonist, β-arrestin recruitment; test system = CHO cells; setting = 10 µM, added: 4 µM TUG-891; inhibition = 27 ± 5%
Compound = CC(C)c1noc2ncc(C(=O)c3ccccc3O)cc12; target = CACNA1G (Homo sapiens, UniProt O43497); assay = ion current, inhibitor, whole-cell patch clamp; setting = 10 µM; inhibition = 9.06% and 4% and 17.8% and 3.22% and 12.5%
Compound = O=C(Nc1cccc2c(=O)cc(-c3nnn[nH]3)oc12)c1ccc(OCCCCc2ccccc2)cc1; target = Volume-regulated anion channel subunit LRRC8C, part LRRC8A IL1 chimera (LRRC8C, Homo sapiens, UniProt Q8TDW0); assay = ion current, inhibitor, whole-cell patch clamp; test system = HCT LRRC8-/- cells, transfected; setting = 1 µM, low ionic strength swelling, +100 mV; inhibition = 17.9% and 52.8% and 61.6% and 38.8%
Compound = CC1=NN(c2ccc(Cl)cc2)C(=O)C1=NNc1ccc(S(N)(=O)=O)cc1; target = Alpha-amylase; assay = enzyme activity, inhibitor, glucose oxidase; setting = 200 µg/mL, added: dextrin; inhibition = 10.4%
Compound = O=c1cc(NCCc2ccccc2)[nH]c(=O)[nH]1; target = FFAR4; assay = antagonist, β-arrestin recruitment; test system = CHO cells; setting = 10 µM, added: 4 µM TUG-891; inhibition = 21 ± 9%
Compound = Cc1cc(-c2ccnc3[nH]cc(F)c23)cc(F)c1[C@@]1(O)[C@H](C)CN(C(=O)CN)C[C@@H]1C; target = ROCK1; assay = ATP probe binding, KiNativ; test system = HEK293T cell lysate; setting = 10 µM; inhibition = 43.2%
Compound = O=c1cc(NCCCOc2ccccc2)[nH]c(=O)[nH]1; target = FFAR4; assay = antagonist, β-arrestin recruitment; test system = CHO cells; setting = 10 µM; inhibition = 16 ± 6%
Compound = NC/C(=C\F)COc1cccc(Cn2c(=S)[nH]c(=O)c3[nH]cnc32)c1; target = MAOA (Homo sapiens, UniProt P21397); assay = enzyme activity; setting = 0.0002 µM; inhibition = 3.37%
Compound = CC[C@H](C)C(=O)O[C@H]1C[C@@H](C)C=C2C=C[C@H](C)[C@H](CC[C@@H]3C[C@@H](O)CC(=O)O3)[C@H]21; target = USP51 (Homo sapiens, UniProt Q70EK9); assay = inhibitor; setting = 1 µM, 1 h preincubation, added: Ub-AMC 250 nM; inhibition = 83%
Compound = COc1cc(C(=O)NS(=O)(=O)c2ccccc2C)ccc1Cc1cn(C)c2ccc(NC(=O)OC3CCCC3)cc12; target = Volume-regulated anion channel subunit LRRC8C, part LRRC8A IL1 chimera (LRRC8C, Homo sapiens, UniProt Q8TDW0, I133F); assay = ion current, inhibitor, whole-cell patch clamp; test system = HCT LRRC8-/- cells; setting = 1 µM, +100 mV; inhibition = 24.4% and 7.74% and 5.65% and -3.38% and 5.62%
Compound = CN(C)C(=O)CN1C(=O)Cc2c([nH]c3ccc(Br)cc23)-c2ccc(Cl)cc21; target = Trypanothione synthetase; assay = enzyme activity, inhibitor, BIOMOL Green; setting = 30 µM; inhibition = 24.6 ± 3.8%
Compound = O=C(O)CCCCCCCNc1cc(=O)[nH]c(=O)[nH]1; target = FFAR4; assay = antagonist, β-arrestin recruitment; test system = CHO cells; setting = 10 µM, added: 4 µM TUG-891; inhibition = 23 ± 7%
Compound = CC1=NN(c2ccc(F)cc2)C(=O)C1=NNc1ccc(S(N)(=O)=O)cc1; target = Alpha-amylase; assay = enzyme activity, inhibitor, glucose oxidase; setting = 100 µg/mL, added: dextrin; inhibition = 11.1%
Compound = [2H]c1cc(C)c(NC(=O)c2cnc(Nc3cc(N4CCCCC4)nc(C)n3)s2)c(Cl)c1; target = ROCK1; setting = 0.01 µM; inhibition = < 30%
Compound = Cn1cc(-c2cnc3ccc(NC(=O)Nc4ccc(F)c(Br)c4)cc3n2)cn1; target = TBK1 (Homo sapiens, UniProt Q9UHD2); assay = kinase binding, KiNativ profiling, item: Lys1 peptide; test system = PANC-1 lysate; setting = 10 µM; inhibition = 12.1%
Compound = CC1=NN(c2cc(Cl)ccc2Cl)C(=O)C1=NNc1ccc(S(N)(=O)=O)cc1; target = Alpha-amylase; assay = enzyme activity, inhibitor, glucose oxidase; setting = 500 µg/mL, added: dextrin; inhibition = 21.7%
Compound = COc1cc2c3c(c1OC)-c1cc4c(cc1CC3N(C)CC2c1ccccc1)OCO4 (stereo not shown); target = benzodiazepine site (rat brain); assay = binding; test system = rat brain; setting = concentration not given, primary screen; inhibition = < 50%
Compound = CN1CCN(C(=O)CN2C(=O)Cc3c([nH]c4ccc(Br)cc34)-c3ccc(Cl)cc32)CC1; target = Trypanothione synthetase; assay = enzyme activity; test system = Trypanosoma brucei; setting = 30 µM; inhibition = 31.6 ± 6%
Compound = COc1cc(C(=O)OCCCN2CCCN(CCCOC(=O)c3cc(OC)c(OC)c(OC)c3)CC2)cc(OC)c1OC; target = Equilibrative nucleoside transporter 2 (Homo sapiens, UniProt Q14542); assay = nucleoside transport, inhibitor; test system = MDCKII cells expressing ENT2; setting = 6.31 µM, added: adenosine; inhibition = 49.4% and 51.6%
Compound = Cc1ccc(CCNc2cc(=O)[nH]c(=O)[nH]2)cc1; target = FFAR4; assay = antagonist, β-arrestin recruitment; test system = CHO cells; setting = 10 µM, added: 4 µM TUG-891; inhibition = 15 ± 6%
Compound = CCc1nn(C)c2nc(-c3ccc(C(=O)O)cc3)nc(NCc3ccc(F)cc3)c12; target = Dual specificity calcium/calmodulin-dependent 3',5'-cyclic nucleotide phosphodiesterase 1B (Homo sapiens, UniProt Q01064); assay = enzyme activity; setting = 10 µM, added: [3H]cGMP; inhibition = 18%
Compound = Cc1nn(-c2nc3c(F)cc(F)cc3s2)c(O)c1C(c1ccc(C(F)(F)F)cc1)c1c(C)nn(-c2nc3c(F)cc(F)cc3s2)c1O; target = Cyclic GMP-AMP synthase, catalytic domain; with DNA (CGAS, Homo sapiens, UniProt Q8N884); assay = cGAS phase separation, inhibitor; setting = 6.25 µM; inhibition = 59.9%
Compound = CC1=NN(c2ccccn2)C(=O)C1=NNc1ccc(S(N)(=O)=O)cc1; target = Alpha-amylase; assay = enzyme activity, inhibitor, glucose oxidase; setting = 100 µg/mL, added: dextrin; inhibition = 11.7%
Compound = Cn1cncc1C1=CN(c2ncnc3[nH]cnc23)CCS1; target = PRKCG (Homo sapiens, UniProt P05129); assay = enzyme activity; setting = 2 µM; inhibition = 92.8%
Compound = CC[C@]12CCCN3CCc4c([nH]c5ccccc45)[C@]31N(Cc1cn(Cc3ccccc3)nn1)C(=O)C2; target = Neuropeptide S receptor, isoform B (NPSR1, Homo sapiens, UniProt Q6W5P4); assay = beta-arrestin recruitment, antagonist, PathHunter chemiluminescence; setting = 20 µM, added: agonist at EC80; inhibition = 30%
Compound = CC1=NNC(=S)NC(=O)C1/N=N/c1ccc(S(N)(=O)=O)cc1 (stereo not shown); target = Alpha-amylase; assay = enzyme activity, inhibitor, glucose oxidase; setting = 100 µg/mL, added: dextrin; inhibition = 15.5%
Compound = CN(C(=O)n1cnc(-c2ccc[n+]([O-])c2)c1)C1CCCCC1; target = CHRM2 (Homo sapiens, UniProt P08172); assay = receptor binding; setting = 10 µM, subtype M2; inhibition = -11.8%
Compound = O=c1cc(NCCCCCCCO)[nH]c(=O)[nH]1; target = FFAR4; assay = antagonist, β-arrestin recruitment; test system = CHO cells; setting = 10 µM, added: 4 µM TUG-891; inhibition = 11 ± 2%
Compound = CC1=NN(c2cccc(C)c2)C(=O)C1=NNc1ccc(S(N)(=O)=O)cc1; target = Alpha-amylase; assay = enzyme activity, inhibitor, glucose oxidase; setting = 200 µg/mL, added: dextrin; inhibition = 22.3%

A few entries again:
Compound = CC1=NN(c2cc(Cl)ccc2Cl)C(=O)C1=NNc1ccc(S(N)(=O)=O)cc1; target = Alpha-amylase; assay = enzyme activity, inhibitor, glucose oxidase; setting = 500 µg/mL, added: dextrin; inhibition = 21.7%
Compound = CN1CCN(C(=O)CN2C(=O)Cc3c([nH]c4ccc(Br)cc34)-c3ccc(Cl)cc32)CC1; target = Trypanothione synthetase; assay = enzyme activity; test system = Trypanosoma brucei; setting = 30 µM; inhibition = 31.6 ± 6%
Compound = CC(C)c1noc2ncc(C(=O)c3ccccc3O)cc12; target = CACNA1G (Homo sapiens, UniProt O43497); assay = ion current, inhibitor, whole-cell patch clamp; setting = 10 µM; inhibition = 9.06% and 4% and 17.8% and 3.22% and 12.5%
